Experimental data from different studies.
Each line is one published result; not all experiments were run side by side. ≈ marks a conversion by molar mass, not a printed value.

CC1COC2=C1C(=O)C(=O)c1c2ccc2c1C(OC(=O)CNC(=O)C(N)CO)CCC2(C)C (mixture of isomers)  thermodynamic solubility (PBS; pH 6.4, 25 °C): 0.497 mg/mL
C[n+]1ccc(-c2cc[n+](C)cc2)cc1  solubility (absorbance; water; pH 7): 2700 mM
CC[C@H](C)[C@H](NC(=O)[C@H](C)NC(=O)CNC(=O)[C@H](Cc1ccccc1)NC(=O)[C@H](CC(N)=O)NC(=O)[C@H](CC(N)=O)NC(=O)[C@H](CO)NC(=O)[C@H](CO)NC(=O)[C@H](Cc1c[nH]cn1)NC(=O)[C@@H](NC(=O)[C@H](CC(C)C)NC(=O)[C@H](Cc1ccccc1)NC(=O)[C@H](CC(N)=O)NC(=O)[C@H](C)NC(=O)[C@H](CC(C)C)NC(=O)[C@H](CCCNC(=N)N)NC(=O)[C@H](CCC(N)=O)NC(=O)[C@@H](NC(=O)[C@H](C)NC(=O)[C@@H]1CSSC[C@H](NC(=O)[C@@H](N)CCCCN)C(=O)N[C@@H](CC(N)=O)C(=O)N[C@@H]([C@@H](C)O)C(=O)N[C@@H](C)C(=O)N[C@@H]([C@@H](C)O)C(=O)N1)[C@@H](C)O[C@H]1O[C@H](CO)[C@H](O)[C@H](O)[C@H]1NC(C)=O)C(C)C)C(=O)N[C@@H](CC(C)C)C(=O)N[C@@H](CO)C(=O)N[C@@H](CO)C(=O)N[C@H](C(=O)N[C@@H](CC(N)=O)C(=O)N[C@H](C(=O)NCC(=O)N[C@@H](CO)C(=O)N[C@@H](CC(N)=O)C(=O)N[C@H](C(=O)N[C@@H](Cc1ccc(O)cc1)C(N)=O)[C@@H](C)O)C(C)C)[C@@H](C)O  thermodynamic solubility (PBS; 1 h, pH 7.4): 0.054 mg/mL (≈ 13.1 µM)
CC1COC2=C1C(=O)C(=O)c1c2ccc2c1C(OC(=O)CNC(=O)CN)CCC2(C)C (mixture of isomers)  thermodynamic solubility (water; 25 °C): 0.273 mg/mL
NC1(CNC(=O)Oc2cccc([C@H]3CCC[C@@]4(C3)OOC3(O4)C4CC5CC(C4)CC3C5)c2)CCCC1 (stereo partly drawn)  kinetic solubility (PBS; pH 7.4): 0.0876 mM (≈ 43.5 µg/mL)
CCc1nnc(-c2c(OC)cc(-c3cnc4cc(-c5cnn(C)c5)ccn34)cc2OC)o1  kinetic solubility (aqueous buffer; pH 7.4): < 0.0016 mM
CC1COC2=C1C(=O)C(=O)c1c2ccc2c1C(OC(=O)CNC(=O)C(N)CCC(=O)O)CCC2(C)C (mixture of isomers)  thermodynamic solubility (PBS; pH 4, 25 °C): 2.14 mg/mL
C#CCCCC(=O)N[C@H]1CCOC1=O  solubility (NMR; water; 20 °C): 1.1 mM
CC[C@H](C)[C@H](NC(=O)[C@H](C)NC(=O)CNC(=O)[C@H](Cc1ccccc1)NC(=O)[C@H](CC(N)=O)NC(=O)[C@H](CC(N)=O)NC(=O)[C@H](CO)NC(=O)[C@H](CO)NC(=O)[C@H](Cc1c[nH]cn1)NC(=O)[C@@H](NC(=O)[C@H](CC(C)C)NC(=O)[C@H](Cc1ccccc1)NC(=O)[C@H](CC(N)=O)NC(=O)[C@H](C)NC(=O)[C@H](CC(C)C)NC(=O)[C@H](CCCNC(=N)N)NC(=O)[C@H](CCC(N)=O)NC(=O)[C@@H](NC(=O)[C@H](C)NC(=O)[C@@H]1CSSC[C@H](NC(=O)[C@@H](N)CCCCN)C(=O)N[C@@H](CC(N)=O)C(=O)N[C@@H]([C@@H](C)O)C(=O)N[C@@H](C)C(=O)N[C@@H]([C@@H](C)O)C(=O)N1)[C@@H](C)O[C@H]1O[C@H](CO[C@@H]2O[C@H](CO)[C@@H](O)[C@H](O)[C@H]2NC(C)=O)[C@H](O)[C@H](O[C@@H]2O[C@H](CO)[C@H](O)[C@H](O)[C@H]2O)[C@H]1NC(C)=O)C(C)C)C(=O)N[C@@H](CC(C)C)C(=O)N[C@@H](CO)C(=O)N[C@@H](CO)C(=O)N[C@H](C(=O)N[C@@H](CC(N)=O)C(=O)N[C@H](C(=O)NCC(=O)N[C@@H](CO)C(=O)N[C@@H](CC(N)=O)C(=O)N[C@H](C(=O)N[C@@H](Cc1ccc(O)cc1)C(N)=O)[C@@H](C)O)C(C)C)[C@@H](C)O  thermodynamic solubility (PBS; 1 h, pH 7.4): 0.05 mg/mL (≈ 11.2 µM)
O=C(c1cc(Cc2n[nH]c(=O)c3ccccc23)ccc1F)N1CC(CNC2CC2)C1  solubility (water): 62.7 mg/mL
CC[C@H](C)[C@H](NC(=O)[C@H](C)NC(=O)CNC(=O)[C@H](Cc1ccccc1)NC(=O)[C@H](CC(N)=O)NC(=O)[C@H](CC(N)=O)NC(=O)[C@H](CO)NC(=O)[C@H](CO)NC(=O)[C@H](Cc1c[nH]cn1)NC(=O)[C@@H](NC(=O)[C@H](CC(C)C)NC(=O)[C@H](Cc1ccccc1)NC(=O)[C@H](CC(N)=O)NC(=O)[C@H](C)NC(=O)[C@H](CC(C)C)NC(=O)[C@H](CCCNC(=N)N)NC(=O)[C@H](CCC(N)=O)NC(=O)[C@@H](NC(=O)[C@H](C)NC(=O)[C@@H]1CSSC[C@H](NC(=O)[C@@H](N)CCCCN)C(=O)N[C@@H](CC(N)=O)C(=O)N[C@@H]([C@@H](C)O)C(=O)N[C@@H](C)C(=O)N[C@@H]([C@@H](C)O)C(=O)N1)[C@@H](C)O)C(C)C)C(=O)N[C@@H](CC(C)C)C(=O)N[C@@H](CO)C(=O)N[C@@H](CO)C(=O)N[C@H](C(=O)N[C@@H](CC(N)=O)C(=O)N[C@H](C(=O)NCC(=O)N[C@@H](CO)C(=O)N[C@@H](CC(N)=O)C(=O)N[C@H](C(=O)N[C@@H](Cc1ccc(O)cc1)C(N)=O)[C@@H](C)O)C(C)C)[C@@H](C)O[C@H]1O[C@H](CO)[C@H](O)[C@H](O)[C@H]1NC(C)=O  thermodynamic solubility (PBS; 1 h, pH 7.4): 0.04 mg/mL (≈ 9.74 µM)
Cn1c(C(C)(C)C)c/c(=N\C(=O)c2cc(C(F)(F)F)ccc2OCC(C)(C)O)n1CC1CCC1  solubility (water): 0.25 mg/mL
